Published values collected from several papers.
A part holds a random share of what one study measured.

Set 1 — observed: enzyme activity; action: inhibitor; tested at: 20 µM; setting: primary screen
Target: Replicase polyprotein 1ab, main protease (rep, Severe acute respiratory syndrome coronavirus 2, UniProt P0DTD1)
SMILES | inhibition
C=CCN1CCc2cc(O)c(O)cc2C(c2ccccc2)C1 (centres unmarked) | 81%
CC[n+]1c(-c2ccccc2)c2cc(N)ccc2c2ccc(N)cc21 | 42.1%
O=C1c2cccc(O)c2C(=O)c2c(O)cccc21 | 25.2%
CCCCC(CC)C/N=C(\N)N/C(N)=N/CCCCCC/N=C(\N)N/C(N)=N/CC(CC)CCCC (centres unmarked) | 29.8%
NC[C@@H]1O[C@H](C23CC4CC(CC(C4)C2)C3)Cc2c1ccc(O)c2O | 97.3%

Set 2 — technique: protein-binding microarray; molecule type: double-stranded DNA, one strand shown; sample: in vitro; tested at: 250 nM; setting: 60-bp whole probe; added: salmon DNA 0.4 mg/ml; relative to: random background probes; reading: higher = stronger binding; all sequences stand within: GCCTAGCAC … GTCTTGATTCGCTTGACGCTGCTG
Target: Interferon regulatory factor 5, full length, phosphomimetic (IRF5, Homo sapiens, UniProt Q13568-2, residues 1-514, K96S/S451D/S453D/S456D/S462D)
Sequence | log fluorescence
GACGATATCGGGCTTCGAGACGTGCTA | 0.864 z-score
TCACTTCTGGATCTCAGACTGTGCTAG | -0.00756 z-score
TTAGGGATCCTTATCCTTTAGTGCTAG | -0.466 z-score
TTAGGACTGCTACTGCTTTCGTGCTAG | 0.799 z-score
GACTATATCAGTATCGAGACGTGCTAG | 3.01 z-score
CGAGTTTCCATTTTCTGAATGTGCTAG | 2.48 z-score
TTAGATTTGAGACTGGATTAGTGCTAG | 0.0275 z-score
TCAAACTTCGGCCTCTAACTGTGCTAG | 0.22 z-score

Set 3 — technique: RNA Bind-n-Seq; molecule type: RNA; sample: in vitro; tested at: 200 nM; setting: whole 134-nt RNA, ends assumed; added: 150 mM KCl; relative to: input library; reading: higher = stronger binding
Target: Fragile X messenger ribonucleoprotein 1, C-terminal low-complexity region (Fmr1, Mus musculus, UniProt P35922)
Sequence | log2 enrichment
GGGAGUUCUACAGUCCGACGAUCAAGUCCUGUGCUACACAUCGUAUGUACCGAAUCGGGAAAAAAAGGGUGGGUUUGGGAAAGUAUUAUGUUACGCCGUUCGGAUCUGCACUUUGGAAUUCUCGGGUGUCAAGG | 0.858
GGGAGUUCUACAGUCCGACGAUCAAGUCCUGUGCUACACAUCGUAUGUACCGAAUCGGGGUUUUUGGGGAGGGGUGGGGAAAGUAUUAUGUUACGCCGUUCGGAUCUGCACUUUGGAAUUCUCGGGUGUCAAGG | 1.03
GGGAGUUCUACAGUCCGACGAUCCCUGUGCUACACAUCGUAUGUACCGAAUCAAACCCCCCCAAAUUUUUAAACCCCCCCAAAAAAGUAUUAUGUUACGCCGUUCGGAUCUGCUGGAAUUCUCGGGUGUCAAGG | -0.85
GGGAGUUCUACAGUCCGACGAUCUUGCAUUUCGAACGCGUUCUAAGAUGCCCCUGAAAGAUGUUCCCCUGGGCCAAUUAGAGGCAGAGCUCCAAGCUCCAGACAUCACUCCAGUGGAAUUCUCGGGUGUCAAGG | 0.419
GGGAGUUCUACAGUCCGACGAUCCACAGACAACACGCACCCACACAGACACAGAGGGAAGGGGUUGGGAUGGGGACAGGGUGCACAGCAGGGCGGGGUAGGAAAACAGCCCCUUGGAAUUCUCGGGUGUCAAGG | 0.849
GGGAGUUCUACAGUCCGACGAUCCCUGUGCUACACAUCGUAUGUACCGAAUCGGCCCCCCCGGGGCCCCCCCGGCCCCCCCGGGAAAGUAUUAUGUUACGCCGUUCGGAUCUGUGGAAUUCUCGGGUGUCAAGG | -0.497
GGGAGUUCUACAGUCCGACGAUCGCAGGAAGUAAAAACAAAUGGAAAUGCUUCGGAUAGUGGCAGGGGUGGGGGUUGCUAAGGGAAGGGUGGGAUGGGAGUGGGUAAAGAGUUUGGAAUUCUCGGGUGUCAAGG | 0.452
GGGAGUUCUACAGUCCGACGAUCUUACAGAUGUAGAGCUAAAACGACUGAAGGAUGCUUUCAAGAGGACCUGUGGACUCUCAUAUUACAUGGGCCAGCACUGCUUCAUCCGGGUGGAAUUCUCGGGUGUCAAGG | 0.0846

Set 4 — action: inhibitor; tested at: 20 µM
Target: Replicase polyprotein 1ab, nsp13 helicase (rep, Severe acute respiratory syndrome coronavirus 2, UniProt P0DTD1)
Compound | inhibition
CCN(CC)CCOc1ccccc1C(=O)CCc1ccccc1 | -17.9%
COc1ccc(CNC(=O)/C=C/c2ccc3[nH]cc(CCN(C)C)c3c2)cc1 | 6.17%
Cc1cc2c(OCC(CNC(C)(C)C)OC(=O)c3ccccc3)cccc2[nH]1 (centres unmarked) | 6.92%
COCC(=O)Nc1c(I)c(C(=O)NCC(O)CO)c(I)c(C(=O)N(C)CC(O)CO)c1I (mixture of isomers) | 3.08%
CN(C)Cc1c(C(=O)NCCOc2ccc(C(=O)NO)cc2)oc2ccccc12 | 4.48%
CCc1cccc2c3c([nH]c12)C(CC)(CC(=O)O)OCC3 (centres unmarked) | -0.9%
C[C@@H]1C/C=C/C=C/C=C/C=C/[C@H](O[C@@H]2O[C@H](C)[C@@H](O)[C@H](N)[C@@H]2O)C[C@@H]2O[C@](O)(C[C@@H](O)C[C@H]3O[C@@H]3/C=C/C(=O)O1)C[C@H](O)[C@H]2C(=O)O | 9.87%
COC1(C2=NCCN2)COc2ccccc2O1 (centres unmarked) | -0.48%
COC[C@H](NC(=O)c1cnc(C)s1)C(=O)N[C@@H](COC)C(=O)N[C@@H](Cc1ccccc1)C(=O)[C@@]1(C)CO1 | 6.42%
O=C(O)c1cc(O)c2c(c1)C(=O)c1cccc(O)c1C2=O | 8.38%
CC(=O)O[C@@H]1CC[C@@]2(C)[C@@H](CC[C@]3(C)[C@@H]2C(=O)C=C2[C@@H]4[C@@H](C)[C@H](C)CC[C@]4(C)CC[C@]23C)[C@@]1(C)C(=O)O | -2%
Cc1cc(C)c(NC(=O)C2CC3CCC2C3)c(C)c1 (centres unmarked) | 0.09%
Clc1ccc2c(c1)N=C(N1CCNCC1)c1ccccc1N2 | 6.14%
COc1ccc(CCCOC(Cn2ccnc2)c2ccc(OC)cc2)cc1 (centres unmarked) | -3.66%
CC(C)CN(C[C@@H](OP(=O)(O)O)[C@H](Cc1ccccc1)NC(=O)O[C@H]1CCOC1)S(=O)(=O)c1ccc(N)cc1 | 12.1%
O=C/C=C/c1ccccc1 | -1.41%
CC(C)C(=O)OCC(=O)[C@@]12O[C@H](C3CCCCC3)O[C@@H]1C[C@H]1[C@@H]3CCC4=CC(=O)C=C[C@]4(C)[C@H]3[C@@H](O)C[C@@]12C | 4.89%
Cc1cn([C@H]2C=C[C@@H](CO)O2)c(=O)[nH]c1=O | -3.08%
NC(=O)CC[C@H](N)C(=O)O | 3.08%
O=C(O)CNC(=O)c1nc(Cl)c2ccccc2c1O | 0.48%
COCCNC(=O)COc1ccc(OCCNC[C@H](O)COc2ccccc2)cc1 | -0.57%
COc1ccccc1N1CCN(CC(O)COc2cc(OC)c(OC)c(OC)c2)CC1 (centres unmarked) | -1.18%
CNC(C)(C)Cc1ccccc1 | 1.5%

Set 5 — cell line: HEK-293T; observed: pseudovirus infection; organism: VSV pseudotyped with SARS-CoV-2 spike; tested at: 10 µM; time: 16 h; relative to: vehicle-treated
SMILES | GFP-positive cells
O=C(O)C[C@H](O)C[C@H](O)/C=C/c1c(C2CC2)nc2ccccc2c1-c1ccc(F)cc1 | 81.9%
O=C1C(O)=C([C@H]2CC[C@H](c3ccc(Cl)cc3)CC2)C(=O)c2ccccc21 | 7.2%
CNC1(C)C2CCC(C2)C1(C)C (centres unmarked) | 82.9%

Repeated from above (set 2):
Sequence | log fluorescence
GACTATATCAGTATCGAGACGTGCTAG | 3.01 z-score
TTAGATTTGAGACTGGATTAGTGCTAG | 0.0275 z-score
TTAGGGATCCTTATCCTTTAGTGCTAG | -0.466 z-score
TTAGGACTGCTACTGCTTTCGTGCTAG | 0.799 z-score
GACGATATCGGGCTTCGAGACGTGCTA | 0.864 z-score
CGAGTTTCCATTTTCTGAATGTGCTAG | 2.48 z-score
